# Experimental data pooled from the literature.
# Parts stem from different laboratories: compare values within a part only. Substitutions count along the parent as printed.

# Series 1
# Target: ATF5, bZIP domain (human)
# Technique: DHFR protein complementation
# Sample: yeast
# Notes: single substitutions, most at no-binding floor
# Relative to: wild-type JUN-FOS pair
# Reading: higher = stronger binding
# Starting sequence: JUN, bZIP domain (human); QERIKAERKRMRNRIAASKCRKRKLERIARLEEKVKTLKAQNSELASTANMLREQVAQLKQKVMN; partner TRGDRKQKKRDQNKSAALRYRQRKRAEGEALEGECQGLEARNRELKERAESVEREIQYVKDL
Change,binding fitness
R53G,-1.54 natural log
K39D,-1.52 natural log
E32H,-1.53 natural log
R53S,-1.52 natural log
L45D,-1.44 natural log
K34W,-1.28 natural log
M51K,-1.37 natural log
E32T,-1.54 natural log
E32R,-1.28 natural log
K34R,-1.42 natural log
E32C,-1.52 natural log
A29Q,-1.41 natural log
M51P,-1.55 natural log
T37V,-1.41 natural log
L38C,-1.48 natural log
A40T,-1.45 natural log
N42H,-1.48 natural log
N42Q,-1.42 natural log
K34P,-1.5 natural log
V56L,-1.35 natural log
S47L,-1.53 natural log
A57L,-1.57 natural log
E44V,-1.54 natural log
S43H,-1.49 natural log
R30W,-1.36 natural log

# Series 2
# Target: Interferon regulatory factor 7, full length, phosphomimetic (IRF7, Homo sapiens, UniProt Q92985, residues 1-503, S471D/S472D/S475D/S476D/S477D/S483D/S484D/S487D)
# UniProt Q92985, sequence (whole entry, unmodified, looked up): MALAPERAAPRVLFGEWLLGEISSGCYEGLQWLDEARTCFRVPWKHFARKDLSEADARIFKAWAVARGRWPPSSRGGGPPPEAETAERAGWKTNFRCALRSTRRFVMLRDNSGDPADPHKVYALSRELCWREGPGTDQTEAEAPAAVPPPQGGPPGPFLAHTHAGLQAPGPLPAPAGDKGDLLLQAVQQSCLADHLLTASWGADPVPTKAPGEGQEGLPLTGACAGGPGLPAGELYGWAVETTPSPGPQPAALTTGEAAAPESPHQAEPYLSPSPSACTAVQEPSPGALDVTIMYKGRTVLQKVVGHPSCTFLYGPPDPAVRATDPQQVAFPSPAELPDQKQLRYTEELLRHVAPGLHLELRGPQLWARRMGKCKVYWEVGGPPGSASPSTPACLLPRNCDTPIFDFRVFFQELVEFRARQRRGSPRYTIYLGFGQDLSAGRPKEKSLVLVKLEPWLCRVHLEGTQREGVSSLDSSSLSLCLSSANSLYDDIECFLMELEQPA
# Technique: protein-binding microarray
# Molecule type: double-stranded DNA, one strand shown
# Sample: in vitro
# Concentration: 2200 nM top
# Notes: 60-bp whole probe
# Added: salmon DNA 0.4 mg/ml
# Relative to: random background probes
# Reading: higher = stronger binding
# All sequences stand within: GCCTAGCAC … GTCTTGATTCGCTTGACGCTGCTG
Strand,fitted relative affinity
TCAATTTTGCTTCTAGAACTGTGCTAG,1.31 z-score
TTAGGTTTCGGGTATGGGTTAGTGCTA,5.25 z-score
TTAGATCTCAGACTGTATTAGTGCTAG,-0.0239 z-score
GACGATTTCAGTTCCGAGAGGTGCTAG,1.5 z-score
TTAGGACTGGACTATCGGATAGTGCTA,-0.489 z-score
TCATATGTCCTGTCTACAACTGTGCTA,1.62 z-score
TTAGGACTTGACTATCGGTTAGTGCTA,-0.0575 z-score
TCAATTATTGCTTCCTCACTGTGCTAG,1.4 z-score
GACGGACTGGACTATCGGAACGTGCTA,-0.433 z-score
TCAATTTCCATTATTGCACTGTGCTAG,2.21 z-score
GACGGTATCCTTATCATGACGTGCTAG,0.626 z-score
GACGGACTGTTTCTCCTGACGTGCTAG,1.08 z-score
GTATGGATGTGTTTTAAATAGTGCTAG,0.781 z-score
TCCCAATTCTCTTTTCACTTGTGCTAG,2.49 z-score
TTAGATTCCAGTGTCGATTAGTGCTAG,0.402 z-score
GACTATATCGGGTTTCGAGACGTGCTA,1.59 z-score
TTAGGTCTCGATATCGGTTAGTGCTAG,0.745 z-score
GACGATTTCCGGTTTCGAGACGTGCTA,5.77 z-score
GACGGTTCCCTTTTCGTGACGTGCTAG,2.58 z-score
ACCATTTTGGTTTTCTCTATGTGCTAG,3.09 z-score
GACGAACTGGGGTATCGTGACGTGCTA,0.108 z-score
TACGATTTCAGACTGGAGACGTGCTAG,0.579 z-score

# Series 3
# Target: RNA binding protein fox-1 homolog 2, RRM domain, GST-SBP tag (RBFOX2, Homo sapiens, UniProt O43251-10, residues 100-194)
# Technique: RNA Bind-n-Seq
# Molecule type: RNA
# Sample: in vitro
# Concentration: 365 nM
# Notes: natural RNA segment, single round, ends assumed
# Relative to: no-protein control
# Reading: higher = stronger binding
# All sequences stand within: GGGAGUUCUACAGUCCGACGAUC … UGGAAUUCUCGGGUGCCAA
# Target sequence (chain): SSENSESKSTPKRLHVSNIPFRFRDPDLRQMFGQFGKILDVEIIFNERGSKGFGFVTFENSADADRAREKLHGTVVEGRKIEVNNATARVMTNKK
Strand,RBNS enrichment (R)
UCAGAAUCUUCCUUAAGAGGGUGUCCAGUAUUAACUUUGAUUGGGAUUAAUCCAGGCAAAAGAAGAGACUUUAUCAGAGAGUGGAGUGAAGCAUUGUGGGUACUACCCGU,0.435
UAAUGAAUCCUCUCAGGACAUUGUGUAGCCUAUGGUAAGUACAAAGGGAGAGGAAGACAUUUUGAAUUUUAAGAGCUUUAUUAUCAGUUUAACCCUCCCUAGUUGAAUGU,0.435
AACCCCACUGGGGUUGCCUUUUUAAAAAUUACUGCCAUUUCUCUGAGACCCGGGUUGAUUUGUGCUAUCUUGGGUCUUUGGCUUAAAUUAAUAGAUUUGUUCUGUGUUUG,0.489
AGACCCCAUACCCGCCCUUGAGUCUGUUUGCAAUUCCUGGGAUCAGGCCCACUCCAGGAGGUGGGCCUCUGGAAUUACAUCUCUACCCUACCCACUUUGGAACCCACUUU,0.891
GGACCCAGCCUUGAGACAGCUGCUGUGGGGACAGUACUGAAGACUCUGCAGCCCUCGGGACCCCACUCGGAGGGUGCCCUCUGCUCAGGCCUCCCUAGCACCUCCCCCUA,0.455
AGAUUGUGCAUCUGCAUUCAACUACCCUGAACCCUUAGGGAAGAAAUGGAUUCCCUGGCUGAGCCAGUGUCUCUUUCCCACUGUCCUUUCUCCAGGUGUGCAGAUGGCAU,0.301
UUCAGUUAGUCUUUUAUUUAUUUAGAAUAAAAAAUAGUUUGAUAACCUACCAGAGUUAGUGCUUCUUUAAAAACACUCCUUGGAAAGAUGGGGACUGUCCCUUAGGAAAG,0.489
UGCCCCUCCUGUGCAGAAGGGAGCCUGCAUCCCUCCCUUCCUUUCUCUUACUGCCAUAGGAAAUUAUUUUAGGGGUUGGAGGUGGGACAAGCAGGCUUGUUUCCACCAAU,0.479
GAGCUGAGCAUUGAUGGGGAUGGGGGUGGUUUGGGAAUAGAAACUUGUUCUUGCAUGAGAUGGCUUUGGUUGUCCCAGUACUCCAGUCUCUCCCUUCCCUUACCUGGCCC,1.62
AAUCCAGUUGGAACAUACAUGCUUUUUUGAAGAAAUUACUUGAAUAAAAUAGUUUUCACAUUUUCAAUAUGCAAGUUUUGAAAAUGAGGAUUUGCCUGGACUUUUUUAUA,1.48
UGUUUUGAAUAAUGACCACGCAUGGACACAGUUUCAUUAAUUUAAAUUGCACCACACAAGUAGCAGUUCAUAAGAAUAAAAUGUGCUUAUUUUACGCAUGGUCCAUAAAA,0.616
UCAUGAAAAUGGAGCCAGAGAGCCUGGACAUCAGGGACUUUUGCCCACAGCACAUGACACCGACAGCUGCCCAGCCUGUUCACAUGCUGGGGACCAGCACAGCACCUGAA,0.517

# Series 4
# Target: Histone acetyltransferase KAT6A, winged helix 2, GST fusion (KAT6A, Homo sapiens, UniProt Q92794, residues 85-181)
# Technique: protein binding microarray
# Molecule type: double-stranded DNA, one strand shown
# Sample: in vitro
# Concentration: not given
# Notes: 8-mer, flanks averaged, mean of 2 arrays, mostly near background
# Relative to: not given
# Reading: higher = stronger binding
# Residues (chain): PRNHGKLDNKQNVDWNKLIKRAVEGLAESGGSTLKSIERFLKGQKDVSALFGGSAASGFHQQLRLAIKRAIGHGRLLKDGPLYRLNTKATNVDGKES
Strand,E-score
TGGATGAA,0.0582
CGTAATAG,-0.163
AATACGCA,-0.0943
ACCGTTCT,-0.212
CTTTCACC,-0.18
AGGACGCC,0.0463
AACGGCGT,0.0602
ATCTACTA,0.00834
CCCGCGGA,0.138
AGCTAATG,-0.0446
CACCATTC,-0.0432
ACACTCAA,0.126
CCTAGTTA,-0.0673
GCATTCTA,0.0911
AATAGCGG,0.0229
AAGTAGCG,-0.0323
GTCTTCAC,0.0667
GATGCGGC,0.199
ACAGGAAT,-0.0653
TAAACGAA,0.0254
CTAGTAAC,-0.201
GTATGTGA,-0.0863
AGTCTTGC,-0.0444
CCTTCGAA,0.125

# Series 5
# Target: CCNE2, cyclin fold, Cln2 fusion (human)
# Technique: yeast growth competition, sequencing
# Sample: yeast
# Notes: strong parent motif
# Relative to: not given
# Reading: higher = stronger binding
# Starting sequence: TICRR docking peptide (human); TKVRRNLFNQELL
Change,normalised enrichment score
V3A,-0.0669
R5A L7A,0.0409
Q10A,1.07
T1A,1.54
L12A,0.635
N6A,1.73
F8A,-0.5
F8L,0.987
R5K F8L,0.349
R4A,0.63

# Series 6
# Target: Hepatocyte nuclear factor 3-beta, forkhead domain (FOXA2, Homo sapiens, UniProt Q9Y261, residues 142-269)
# Technique: protein-binding microarray
# Molecule type: double-stranded DNA, one strand shown
# Sample: in vitro
# Concentration: not given
# Notes: k-mer, scored over probes, only values ≥0.25
# Reading: higher = stronger binding
# Residues (chain): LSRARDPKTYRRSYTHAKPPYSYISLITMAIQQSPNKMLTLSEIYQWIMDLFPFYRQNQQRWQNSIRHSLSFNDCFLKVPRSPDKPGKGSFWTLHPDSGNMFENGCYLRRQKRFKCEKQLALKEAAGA
Strand,E-score
CTTGTATA,0.322
CATAGTTA,0.337
GTATATGA,0.268
AGTGTCAT,0.272
AAATGCAA,0.264
ACTTTTAC,0.283
ACTAAACA,0.265
ATCACCAT,0.315
GATACGGA,0.28
ACTGTATA,0.356
ACCCATAT,0.297
CAACATAC,0.274

# Excerpt of the above (series 1):
Change,binding fitness
E32R,-1.28 natural log
K34R,-1.42 natural log
E32C,-1.52 natural log
A29Q,-1.41 natural log
M51P,-1.55 natural log
T37V,-1.41 natural log
L38C,-1.48 natural log
A40T,-1.45 natural log
N42H,-1.48 natural log
N42Q,-1.42 natural log
K34P,-1.5 natural log
V56L,-1.35 natural log
